Measurements of several laboratories.
Each line is one published result; not all experiments were run side by side. ± marks the error that the study gave. ≈ marks a conversion by molar mass, not a printed value.

Compound | assay | system | setting | how to read | measurement | result
Cl.[2H]C([2H])([2H])CC(=O)c1cnc(NC(=O)C2CC2)cc1Nc1cccc(-c2ncn(C([2H])([2H])[2H])n2)c1OC |  | human, fed | oral, 25 mg, single dose, liquid formulation, geometric mean |  | AUC(0-inf) | 1830 ng·h/mL
c1ccc(C2CCN(c3nc(-c4ccn[nH]4)nc4ccccc34)C2)nc1 (centres unmarked) |  | Japanese Pharmacopoeia disintegration test solution 2 | pH 6.8 |  | kinetic solubility | 71 µg/mL (≈ 207 µM)
CN(C(=O)n1cnc(-c2ccc[n+]([O-])c2)c1)[C@H]1CC[C@H](O)CC1 |  | rat, hippocampus | oral, 10 mg/kg single dose, 4 h |  | tissue concentration | 14.1 ± 0.5 ng/g
CCn1c2ccc(CNCCOCCOCCOCCC(=O)NCCOc3ccc(CCc4nc5cc(-c6c(C)noc6C)ccc5n4CCN4CCOCC4)cc3F)cc2c2ccc(-c3cc(C)cs3)cc21 |  | Swiss albino mouse | intraperitoneal, 50 mg/kg, single dose |  | toxicity | not toxic
COc1ccc2c(C)nc(Nc3nc(C)cc(O)n3)nc2c1 |  | aqueous buffer | pH 7.4 |  | thermodynamic solubility | < 4.29 µM
COC(=O)c1ccc2c(c1)NC(=O)/C2=C(\Nc1ccc(N(C)C(=O)CN2CCN(C)CC2)cc1)c1ccccc1 |  | healthy volunteers, plasma | oral, 150 mg, together with: pirfenidone |  | Vd/F | 15400 L
COc1ccc2c(=O)n(C)c(-c3ccccc3)nc2c1 |  | male Sprague-Dawley rat, testis | oral, 30 mg/kg, 0.25 h |  | tissue concentration | 12 ng/g
COc1ccc2[nH]c([S+]([O-])Cc3ncc(C)c(OC)c3C)nc2c1 (centres unmarked) |  | healthy Chinese volunteers CYP2C19 PM, plasma | oral, 20 mg single dose, fasted |  | AUC(0-t) | 3800 ± 1600 ng·h/mL
O=C(Nc1nc2cccc(-c3ccc(CN4CCS(=O)(=O)CC4)cc3)n2n1)C1CC1 | item: any adverse event | human rheumatoid arthritis patients | oral, 150 mg once daily, 4 weeks, regardless of relatedness |  | treatment-emergent adverse events | 26.7%
C[C@@H](N)C1CCN(S(=O)(=O)c2cccc3cnccc23)CC1 | item: Rash | healthy volunteers | 150 mg, fed |  | TEAE incidence | 0%
Cn1cc(Nc2nccc(-c3ccc4c(c3)CN(C3COC3)CC[C@H]4NC(=O)c3cn(C(C)(C)C)nn3)n2)cn1 |  | human, whole blood | 150 mg twice daily, day 7 | baseline: pre-dose baseline | NKT cell count change | 42.2%
CC(C)(C(=O)N1CCOc2c(C#N)cncc2C1)C(F)F | item: infections and infestations | human | oral, 20 mg twice daily, 14 days, multiple ascending dose |  | subjects with adverse event | 0%
O=C(Nc1cnccc1Cl)N1CCN(Cc2ccc3c(c2)OC(F)(F)O3)CC1 | item: Somnolence | human healthy young men | 25 mg, multiple dose |  | adverse event incidence | 0%
COc1cc2c(cc1OC)C(=O)C(CC1CCN(Cc3ccccc3)CC1)C2 (centres unmarked) | spirometry | human subjects | dose not given | baseline: placebo | FEV1 | 0.016 L
c1csc(CNc2cc[nH]n2)c1 | DNA damage, alkaline comet | Hsd:ICR(CD-1) mice, male, liver | oral gavage, 500 mg/kg/day, 3 days |  | tail DNA (mean) | 1.4%
CN1CCN(c2cccc3c2CCN(C(=O)/C=C/c2c(-n4cnnn4)ccc(Cl)c2F)[C@@H]3C(=O)Nc2ccc(C(=O)O)cc2)C(=O)C1 |  | healthy human subjects | intravenous infusion, 3 mg/h, 5 days |  | subjects with skin irritation | 0%
COc1ccc([C@@H](O)c2cc(-c3ncnc4cc(N5CCOCC5)ccc34)c(F)cc2Cl)nn1 |  | locally advanced rectal cancer patients | 250 mg, together with: capecitabine and radiotherapy |  | drug-related nausea incidence | 17%
CCN1/C(=C/C(C)=O)Sc2ccc(F)cc21 |  | cynomolgus monkey | oral, 100 mg/kg, 2 h post-dose | baseline: pre-dose | mean blood pressure change | 96.4 ± 3.4%
CC[C@H]1CC[C@H](c2ccc(-c3ccc(F)c(F)c3)cc2)CC1 |  | rat, placenta | 5000 ng/mL in perfusate, high dose, mixture of 21 LCMs |  | median placental accumulation | 121 ng/g
CCCOc1ccc(NC(=O)CN2CCN(C)CC2)cc1-c1nc(CC)c(CC)c(=O)[nH]1 | least-squares mean difference | healthy Chinese men | 10 mg, supine or semi-supine, together with: alcohol 0.5 g/kg | baseline: compound plus placebo | AUEC(0-4 h) systolic BP difference | -15.3 h·mmHg

Some of these lines once more:
Compound | assay | system | setting | how to read | measurement | result
c1csc(CNc2cc[nH]n2)c1 | DNA damage, alkaline comet | Hsd:ICR(CD-1) mice, male, liver | oral gavage, 500 mg/kg/day, 3 days |  | tail DNA (mean) | 1.4%
CN1CCN(c2cccc3c2CCN(C(=O)/C=C/c2c(-n4cnnn4)ccc(Cl)c2F)[C@@H]3C(=O)Nc2ccc(C(=O)O)cc2)C(=O)C1 |  | healthy human subjects | intravenous infusion, 3 mg/h, 5 days |  | subjects with skin irritation | 0%
